Measured values of several laboratories.
Compare with care: the assays were run in different laboratories. ± gives the spread as reported.
BCHE: Cholinesterase (BCHE, Equus caballus, UniProt P81908)
Chain of UniProt P81908 (whole entry, looked up): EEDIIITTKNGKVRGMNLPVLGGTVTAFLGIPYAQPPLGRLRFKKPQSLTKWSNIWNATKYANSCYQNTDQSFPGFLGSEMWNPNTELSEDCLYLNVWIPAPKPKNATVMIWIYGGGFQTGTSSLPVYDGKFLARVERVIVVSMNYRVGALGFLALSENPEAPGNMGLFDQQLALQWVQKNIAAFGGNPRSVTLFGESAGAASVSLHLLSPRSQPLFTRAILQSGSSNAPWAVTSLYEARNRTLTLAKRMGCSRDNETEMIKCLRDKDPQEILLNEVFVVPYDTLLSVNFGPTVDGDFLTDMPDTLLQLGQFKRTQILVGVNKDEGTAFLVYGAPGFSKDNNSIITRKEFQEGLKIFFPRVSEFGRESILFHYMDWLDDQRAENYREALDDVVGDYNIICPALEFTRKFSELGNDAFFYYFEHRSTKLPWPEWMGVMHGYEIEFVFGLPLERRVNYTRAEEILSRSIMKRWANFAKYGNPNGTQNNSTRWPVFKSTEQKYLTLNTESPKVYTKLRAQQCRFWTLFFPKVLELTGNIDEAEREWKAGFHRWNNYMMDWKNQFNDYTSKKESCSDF
AKR1C3: Aldo-keto reductase family 1 member C3 (AKR1C3, Homo sapiens, UniProt P42330)
Chain of UniProt P42330 (whole entry, looked up): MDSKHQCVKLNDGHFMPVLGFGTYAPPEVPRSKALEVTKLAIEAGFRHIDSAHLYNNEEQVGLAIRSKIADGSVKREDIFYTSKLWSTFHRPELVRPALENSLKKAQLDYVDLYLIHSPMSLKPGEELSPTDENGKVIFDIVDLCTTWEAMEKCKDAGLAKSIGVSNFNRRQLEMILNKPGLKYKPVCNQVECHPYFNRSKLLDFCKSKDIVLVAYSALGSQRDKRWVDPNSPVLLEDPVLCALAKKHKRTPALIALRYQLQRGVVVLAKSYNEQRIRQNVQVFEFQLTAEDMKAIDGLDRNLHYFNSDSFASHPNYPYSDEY
CDK2: Cyclin-dependent kinase 2 (CDK2, Homo sapiens, UniProt P24941)
Chain of UniProt O66465 (whole entry, unmodified, looked up): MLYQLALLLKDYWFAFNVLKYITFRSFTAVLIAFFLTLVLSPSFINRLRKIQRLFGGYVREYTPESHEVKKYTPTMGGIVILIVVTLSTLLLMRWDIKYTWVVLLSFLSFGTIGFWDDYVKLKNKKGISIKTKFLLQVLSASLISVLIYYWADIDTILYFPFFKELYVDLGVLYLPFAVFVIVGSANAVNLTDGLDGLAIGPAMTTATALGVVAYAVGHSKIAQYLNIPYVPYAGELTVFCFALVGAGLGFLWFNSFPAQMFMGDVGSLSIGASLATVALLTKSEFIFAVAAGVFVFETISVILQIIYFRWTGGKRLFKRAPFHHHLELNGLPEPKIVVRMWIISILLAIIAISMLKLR
Chain of UniProt P12821 (whole entry, looked up): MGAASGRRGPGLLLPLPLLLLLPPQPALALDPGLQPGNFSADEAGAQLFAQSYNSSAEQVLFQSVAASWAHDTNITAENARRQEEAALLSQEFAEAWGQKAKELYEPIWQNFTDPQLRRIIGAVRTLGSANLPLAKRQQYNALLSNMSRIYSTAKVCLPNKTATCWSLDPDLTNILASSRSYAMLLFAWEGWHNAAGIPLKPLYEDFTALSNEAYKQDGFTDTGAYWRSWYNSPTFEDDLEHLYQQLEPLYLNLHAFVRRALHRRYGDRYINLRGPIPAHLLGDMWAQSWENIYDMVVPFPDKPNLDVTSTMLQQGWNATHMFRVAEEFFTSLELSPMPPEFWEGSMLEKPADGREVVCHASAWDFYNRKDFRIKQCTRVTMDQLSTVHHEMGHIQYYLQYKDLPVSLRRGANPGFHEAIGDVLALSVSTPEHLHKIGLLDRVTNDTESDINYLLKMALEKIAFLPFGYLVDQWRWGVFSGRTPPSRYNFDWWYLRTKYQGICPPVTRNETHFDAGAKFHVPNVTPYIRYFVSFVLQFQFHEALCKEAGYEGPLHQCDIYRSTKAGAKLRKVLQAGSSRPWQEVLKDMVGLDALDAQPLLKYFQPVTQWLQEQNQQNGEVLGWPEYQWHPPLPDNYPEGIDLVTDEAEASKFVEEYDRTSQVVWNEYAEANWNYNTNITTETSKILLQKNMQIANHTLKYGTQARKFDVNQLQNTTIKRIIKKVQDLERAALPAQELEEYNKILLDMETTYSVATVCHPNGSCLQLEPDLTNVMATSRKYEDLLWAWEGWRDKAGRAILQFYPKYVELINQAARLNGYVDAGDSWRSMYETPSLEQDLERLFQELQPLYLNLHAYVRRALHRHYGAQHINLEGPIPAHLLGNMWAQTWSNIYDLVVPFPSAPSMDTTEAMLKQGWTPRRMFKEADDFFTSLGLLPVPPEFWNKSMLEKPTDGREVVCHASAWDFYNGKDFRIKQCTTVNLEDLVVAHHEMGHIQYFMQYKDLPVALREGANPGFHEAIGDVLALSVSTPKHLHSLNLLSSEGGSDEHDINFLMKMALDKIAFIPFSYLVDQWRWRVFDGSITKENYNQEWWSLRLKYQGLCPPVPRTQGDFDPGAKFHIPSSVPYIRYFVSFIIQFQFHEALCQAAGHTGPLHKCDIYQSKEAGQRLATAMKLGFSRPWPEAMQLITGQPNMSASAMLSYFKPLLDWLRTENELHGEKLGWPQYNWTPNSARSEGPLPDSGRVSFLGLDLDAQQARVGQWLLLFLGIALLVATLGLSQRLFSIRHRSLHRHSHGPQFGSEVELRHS
Chain of UniProt P12822 (whole entry, looked up): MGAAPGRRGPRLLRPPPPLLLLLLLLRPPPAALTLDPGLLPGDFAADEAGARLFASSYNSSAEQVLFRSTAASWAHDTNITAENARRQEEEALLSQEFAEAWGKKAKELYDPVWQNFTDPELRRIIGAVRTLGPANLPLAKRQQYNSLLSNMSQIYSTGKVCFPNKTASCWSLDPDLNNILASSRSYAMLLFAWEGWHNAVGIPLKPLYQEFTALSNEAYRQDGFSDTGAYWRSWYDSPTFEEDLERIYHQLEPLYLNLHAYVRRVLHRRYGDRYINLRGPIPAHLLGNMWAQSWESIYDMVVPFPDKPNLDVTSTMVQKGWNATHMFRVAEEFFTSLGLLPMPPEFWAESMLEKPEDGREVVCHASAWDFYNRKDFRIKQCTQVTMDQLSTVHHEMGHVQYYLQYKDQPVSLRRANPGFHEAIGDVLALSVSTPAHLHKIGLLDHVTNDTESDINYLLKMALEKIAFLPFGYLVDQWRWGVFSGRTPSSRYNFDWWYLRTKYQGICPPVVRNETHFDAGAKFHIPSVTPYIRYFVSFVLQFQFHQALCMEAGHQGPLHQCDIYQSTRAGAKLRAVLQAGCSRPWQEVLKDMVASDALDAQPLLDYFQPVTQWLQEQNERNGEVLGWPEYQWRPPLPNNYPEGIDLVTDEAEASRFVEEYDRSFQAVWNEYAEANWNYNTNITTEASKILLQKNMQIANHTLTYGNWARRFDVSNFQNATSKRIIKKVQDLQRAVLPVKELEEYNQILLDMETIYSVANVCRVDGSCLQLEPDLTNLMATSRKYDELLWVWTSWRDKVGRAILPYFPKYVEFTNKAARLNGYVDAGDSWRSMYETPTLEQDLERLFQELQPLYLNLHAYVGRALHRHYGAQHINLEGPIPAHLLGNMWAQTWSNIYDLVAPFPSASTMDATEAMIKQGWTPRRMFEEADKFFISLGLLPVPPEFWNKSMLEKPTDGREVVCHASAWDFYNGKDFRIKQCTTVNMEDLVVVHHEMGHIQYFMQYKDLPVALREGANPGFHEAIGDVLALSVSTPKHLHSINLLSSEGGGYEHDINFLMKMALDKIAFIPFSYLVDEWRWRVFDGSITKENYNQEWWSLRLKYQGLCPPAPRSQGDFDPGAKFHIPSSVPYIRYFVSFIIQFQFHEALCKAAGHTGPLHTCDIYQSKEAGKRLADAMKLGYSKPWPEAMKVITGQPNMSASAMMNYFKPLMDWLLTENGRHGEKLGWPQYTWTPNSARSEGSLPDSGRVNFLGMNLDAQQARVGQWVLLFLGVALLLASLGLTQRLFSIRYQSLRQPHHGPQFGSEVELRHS
Chain of UniProt P07711 (whole entry, looked up): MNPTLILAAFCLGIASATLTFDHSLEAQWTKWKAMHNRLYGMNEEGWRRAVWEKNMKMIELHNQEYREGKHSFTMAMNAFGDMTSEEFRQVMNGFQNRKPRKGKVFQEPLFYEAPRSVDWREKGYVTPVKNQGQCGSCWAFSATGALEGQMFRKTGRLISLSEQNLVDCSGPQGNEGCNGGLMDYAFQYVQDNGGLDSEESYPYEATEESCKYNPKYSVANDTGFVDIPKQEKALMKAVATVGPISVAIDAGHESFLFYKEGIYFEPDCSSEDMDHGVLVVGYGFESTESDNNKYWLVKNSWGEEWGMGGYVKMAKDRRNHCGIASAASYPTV
Chain of UniProt Q06124 (whole entry, looked up): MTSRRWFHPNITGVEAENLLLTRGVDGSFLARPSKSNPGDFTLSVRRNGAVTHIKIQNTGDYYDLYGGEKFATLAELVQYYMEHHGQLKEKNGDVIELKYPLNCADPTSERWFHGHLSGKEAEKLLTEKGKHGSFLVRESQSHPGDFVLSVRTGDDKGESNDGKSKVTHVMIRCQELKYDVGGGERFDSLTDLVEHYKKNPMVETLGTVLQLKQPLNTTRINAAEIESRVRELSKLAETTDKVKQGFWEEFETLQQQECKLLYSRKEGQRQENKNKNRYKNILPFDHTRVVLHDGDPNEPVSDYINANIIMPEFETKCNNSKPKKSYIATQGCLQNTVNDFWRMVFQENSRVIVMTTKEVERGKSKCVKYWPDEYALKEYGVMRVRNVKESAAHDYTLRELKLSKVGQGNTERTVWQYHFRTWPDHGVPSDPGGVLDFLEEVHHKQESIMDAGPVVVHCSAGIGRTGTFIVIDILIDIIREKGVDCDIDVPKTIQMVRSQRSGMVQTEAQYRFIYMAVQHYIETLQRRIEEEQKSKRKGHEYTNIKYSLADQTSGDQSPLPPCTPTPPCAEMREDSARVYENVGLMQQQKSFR

CC(C)CC(NC(=O)C(NC(=O)NC(C(=O)O)C(C)C)C1CCNC(=N)N1)C(=O)NCCCNC(C(=O)O)C(OC1OC(CN)C(O)C1O)C1OC(n2ccc(=O)[nH]c2=O)C(O)C1O (stereo not drawn) — inhibition (mraY (Aquifex aeolicus, UniProt O66465, D193N); enzyme activity, inhibitor, radiochemical transfer; 1 µM, D193N mutant): no inhibition
Cc1ccnc(Nc2c3c(nc4ccccc24)CCCC3)c1 — inhibition (BCHE; enzyme activity, inhibitor; 100 µM): -73.4%
CC(C)C[C@@H]1NC(=O)[C@H](C(C)C)NC(=O)[C@H](C)NC(=O)[C@H](Cc2ccc(O)cc2)NC(=O)[C@H](CCC(N)=O)NC(=O)[C@H](CC(C)C)NC(=O)[C@@H](Cc2ccc(O)cc2)NC(=O)CSC[C@@H](C(N)=O)NC(=O)[C@H](CCC(=O)O)NC(=O)[C@H](CCCNC(=N)N)NC(=O)[C@H](CCCNC(=N)N)NC(=O)[C@H](CCCCN)NC(=O)[C@H](Cc2c[nH]cn2)NC(=O)[C@H](CCCNC(=N)N)NC1=O — inhibition (Furin (FURIN, Homo sapiens, UniProt P09958); enzyme activity; 10 µM): inactive
CSCCNC(=O)CCC(C)C1CCC2C3C(O)CC4CC(O)CCC4(C)C3CCC12C (stereo not drawn) — inhibition (Bile acid receptor (NR1H4, Homo sapiens, UniProt Q96RI1); receptor activation, antagonist; concentration not given, together with: CDCA 25 µM): inhibited
COC(=O)C1=CO[C@@H](O)[C@@H]2C(Cn3cc(CCCO[Si](c4ccccc4)(c4ccccc4)C(C)(C)C)nn3)=CC[C@H]12 — inhibition (BCHE; inhibitor; horse serum BuChE; 10000 µM): 35.42 ± 0.2%
C[C@@]12CC[C@@H]3c4cc(Cl)c(O)c(Cl)c4CC[C@H]3[C@@H]1CCC2=O — inhibition (AKR1C3; enzyme activity, inhibitor, absorbance; 100 µM, pH 9): 89.8%
COc1ccnc(Nc2c3c(nc4cc(C)ccc24)CCCC3)c1 — inhibition (BCHE; enzyme activity, inhibitor; 50 µM): < -200%
OC[C@H]1[C@@H](O)[C@@H](O)CN1Cc1ccncc1 — inhibition (Lysosomal alpha-mannosidase (Drosophila melanogaster, UniProt Q9VKV1); 2 mM): 2%
C[C@@]12CC[C@@H]3c4ccc(O)c(Cl)c4CC[C@H]3[C@@H]1CCC2=O — inhibition (AKR1C3; enzyme activity, inhibitor, absorbance; 100 µM, pH 9): 43.6%
COc1ccnc(Nc2c3c(nc4ccccc24)CCC(C)C3)c1 (stereo not drawn) — inhibition (BCHE; enzyme activity, inhibitor; 100 µM): -61.4%
COC(=O)C1=CO[C@@H](OC(C)=O)[C@@H]2C(Cn3cc(-c4ccc(OC)cc4)nn3)=CC[C@H]12 — inhibition (BCHE; inhibitor; horse serum BuChE; 10000 µM): 34.97 ± 0.26%
NC(=O)c1ccc(NC(=O)c2cccc(CC3CCCCC3)n2)c(Cc2ccccc2)c1 — inhibition (Capsid scaffolding protein, protease domain (Human herpesvirus 8 type P, UniProt Q2HRB6); enzyme activity, inhibitor; concentration not given, pH 8): inactive
Cc1ccc2c(Nc3ccc4ccccc4n3)c3c(nc2c1)CCCC3 — inhibition (BCHE; enzyme activity, inhibitor; 100 µM): -49.2%
N#CC1(c2ccc3c(N)ncnn23)OC(COP(=O)(O)OP(=O)(O)OP(=O)(O)O)C(O)C1O (stereo not drawn) — inhibition (DNA-directed RNA polymerase II subunit RPB1/DNA-directed RNA polymerase II subunit RPB2 (Homo sapiens, UniProt P24928+P30876); enzyme activity; concentration not given): no inhibition
C[C@@]12CC[C@H]3[C@@H](CCC4=CC(=O)C=C[C@@]43F)[C@@H]1CCC2=O — inhibition (AKR1C3; enzyme activity, inhibitor, absorbance; 10 µM, pH 9): 24.1%
CC(C)[C@H](NC(=O)[C@H](CCCNC(=N)N)NC(=O)[C@@H](N)Cc1ccccc1)C(=O)N[C@@H](Cc1c[nH]c2ccccc12)C(=O)O — inhibition (ACE (Oryctolagus cuniculus, UniProt P12822); inhibitor; rabbit; concentration not given, 3 h, 37 °C, after incubation with ACE): 92.75 ± 0.15%
CC[C@H](C)[C@H](NC(=O)[C@H](Cc1ccc(O)cc1)NC(=O)[C@@H](NC(=O)[C@H](CCCNC(=N)N)NC(=O)[C@@H](N)CC(=O)O)C(C)C)C(=O)N[C@@H](Cc1c[nH]cn1)C(=O)N1CCC[C@H]1C(=O)N[C@@H](Cc1ccccc1)C(=O)O — inhibition (ACE (Homo sapiens, UniProt P12821); angiotensin I hydrolysis; human serum; 2.5 µM, together with: angiotensin I 2.5 µM): 20%
C[C@@](O)(C(F)F)[C@H](NC(=O)c1ccc(C#CC#CC2CC2)cc1)C(=O)NO — inhibition (MMP12 (Homo sapiens, UniProt P39900); enzyme activity, inhibitor; 30 µM): ≤ 30%
O=C(O)c1ccccc1-c1c2ccc(=O)c([As]3SCCS3)c-2oc2c([As]3SCCS3)c(O)ccc12 — inhibition (PTPN11 (Homo sapiens, UniProt Q06124); phosphatase activity; concentration not given, 150 min, full-length, together with: DiFMUP): inhibited
CCCc1cnn2c(NCc3ccc(C)s3)nc(N[C@H](CC)CO)nc12 — inhibition (CDK2; enzyme activity; 2 µM): ~25%
Cc1ccnc(Nc2c3c(nc4cc(C)ccc24)CCCC3)c1 — inhibition (BCHE; enzyme activity, inhibitor; 100 µM): -26.6%
O=C(NCCc1cccc(F)c1)[C@@H](c1cncnc1)N(C(=O)[C@H](F)Cl)c1ccc(S(F)(F)(F)(F)F)cc1 — inhibition (Procathepsin L (CTSL, Homo sapiens, UniProt P07711); inhibitor; 20 µM): no inhibition
CC(=O)NC(Cc1ccc(Br)c(Cl)c1)C(=O)N[C@@H](C)C(=O)N1CCC[C@H]1C(=O)N1CCC[C@H]1C(=O)N[C@@H](CCC(=O)O)C(=O)N[C@@H](Cc1c[nH]cn1)C(=O)N[C@@H](CO)C(=O)N[C@H](C(=O)N[C@@H](C)C(N)=O)[C@@H](C)OP(=O)(O)O (stereo partly drawn) — inhibition (Cyclin-dependent kinase 2, with cyclin E1 (CDK2, Homo sapiens, UniProt P24941); enzyme activity, inhibitor; 10 µM): 0.85%
Cc1cccnc1Nc1c2c(nc3ccccc13)CCC(C)C2 (stereo not drawn) — inhibition (BCHE; enzyme activity, inhibitor; 100 µM): -139%
O=C(C[P+]([Au-][Cl])(c1ccccc1)c1ccccc1)[O][Ti+2][O]C(=O)C[P+]([Au-][Cl])(c1ccccc1)c1ccccc1.c1cc[cH-]c1.c1cc[cH-]c1 — inhibition (MAPKAPK3 (Homo sapiens, UniProt Q16644); kinase activity; 10 µM): ≥ 50%
COc1ccnc(Nc2c3c(nc4ccccc24)CCCC3)c1 — inhibition (BCHE; enzyme activity, inhibitor; 50 µM): 78%
COC(=O)C1=CO[C@@H](OC(C)=O)[C@@H]2C(Cn3cc(CCCO[Si](C(C)C)(C(C)C)C(C)C)nn3)=CC[C@H]12 — inhibition (BCHE; inhibitor; horse serum BuChE; 10000 µM): 10.7 ± 0.15%
CC[C@H](CO)Nc1nc(NCc2ccc(C)s2)n2ncc(C(C)C)c2n1 — inhibition (CDK2; enzyme activity; 2 µM): 75%
Fc1ccc(Nc2c3c(nc4ccccc24)CCCC3)cc1 — inhibition (BCHE; enzyme activity, inhibitor; 100 µM): -108%
COC(=O)C1=CO[C@@H](OC(C)=O)[C@@H]2C(Cn3cc(C(O)(c4ccccc4)c4ccccc4)nn3)=CC[C@H]12 — inhibition (BCHE; inhibitor; horse serum BuChE; 10000 µM): 27.14 ± 0.09%

Excerpt of the above:
COc1ccnc(Nc2c3c(nc4cc(C)ccc24)CCCC3)c1 — inhibition (BCHE; enzyme activity, inhibitor; 50 µM): < -200%
CCCc1cnn2c(NCc3ccc(C)s3)nc(N[C@H](CC)CO)nc12 — inhibition (CDK2; enzyme activity; 2 µM): ~25%
